Measured values of several laboratories.
Numbered parts are unrelated; each lists some results of a single study. Positions count from the first letter of the parent shown.

Set 1 — technique: universal PBM; molecule type: double-stranded DNA, one strand shown; sample: in vitro; tested at: 600 nM; direction: higher = stronger binding; measurement: E-score
Target: Sal-like protein 4, full length isoform A (SALL4, Homo sapiens, UniProt Q9UJQ4, residues 1-1053)
Chain of UniProt Q9UJQ4 (whole entry, looked up): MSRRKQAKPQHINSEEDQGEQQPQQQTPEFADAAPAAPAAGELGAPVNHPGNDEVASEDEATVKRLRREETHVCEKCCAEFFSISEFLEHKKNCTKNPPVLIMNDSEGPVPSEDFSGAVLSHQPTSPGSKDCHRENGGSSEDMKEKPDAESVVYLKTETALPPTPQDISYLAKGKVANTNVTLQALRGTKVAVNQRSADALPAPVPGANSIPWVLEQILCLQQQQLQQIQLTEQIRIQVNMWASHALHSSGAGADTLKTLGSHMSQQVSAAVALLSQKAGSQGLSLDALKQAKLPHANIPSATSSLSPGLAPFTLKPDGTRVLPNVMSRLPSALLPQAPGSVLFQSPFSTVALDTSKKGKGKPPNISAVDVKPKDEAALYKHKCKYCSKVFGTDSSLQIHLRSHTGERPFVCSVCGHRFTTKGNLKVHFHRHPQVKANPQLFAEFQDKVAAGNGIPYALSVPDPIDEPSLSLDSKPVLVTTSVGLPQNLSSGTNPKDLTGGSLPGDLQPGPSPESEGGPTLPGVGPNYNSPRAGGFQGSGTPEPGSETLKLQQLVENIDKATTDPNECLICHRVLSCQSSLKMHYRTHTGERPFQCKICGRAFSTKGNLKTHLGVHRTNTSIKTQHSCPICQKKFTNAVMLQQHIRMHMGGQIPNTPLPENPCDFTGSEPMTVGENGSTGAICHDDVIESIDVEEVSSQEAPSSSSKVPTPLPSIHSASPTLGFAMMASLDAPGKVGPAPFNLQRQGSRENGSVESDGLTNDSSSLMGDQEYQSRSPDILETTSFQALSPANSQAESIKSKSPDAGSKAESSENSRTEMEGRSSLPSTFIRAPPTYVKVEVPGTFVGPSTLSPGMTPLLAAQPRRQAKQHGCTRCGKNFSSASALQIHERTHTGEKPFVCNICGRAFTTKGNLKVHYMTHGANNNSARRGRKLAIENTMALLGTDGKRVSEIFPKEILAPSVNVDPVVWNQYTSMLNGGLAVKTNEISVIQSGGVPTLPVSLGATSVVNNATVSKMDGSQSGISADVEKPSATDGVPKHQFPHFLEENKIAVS
Notes: 8-mer, flanks averaged, mean of replicates
TGGTGAAA: 0.0336
AAATCTAC: 0.234
CCGACAAA: 0.0796
ACACGCTA: -0.0114
CGGAGTTA: -0.148
CCCGATAC: -0.14
CCTTAGTC: -0.0282
CTTTTATA: 0.276
CGTGAACA: -0.0918
GCCTGAGA: -0.15
CACTTAAA: 0.215
CGCAGTTA: 0.0878
AAAACGAC: 0.0576
AATGGTAA: 0.23
ACCACGTC: -0.15
AAGCGTAG: -0.095
CTCCCCCC: -0.331
AACCCCGA: -0.177
GACCCGCC: -0.33

Set 2 — technique: protein-binding microarray; molecule type: double-stranded DNA, one strand shown; sample: in vitro; tested at: 940 nM top; notes: 60-bp whole probe; added: salmon DNA 0.4 mg/ml; relative to: random background probes; direction: higher = stronger binding; measurement: fitted relative affinity; constant ends, left off below: GCCTAGCAC … GTCTTGATTCGCTTGACGCTGCTG
Target: Interferon regulatory factor 5, full length, phosphomimetic (IRF5, Homo sapiens, UniProt Q13568-2, residues 1-514, S451D/S453D/S456D/S462D)
TTAGATATCGGGCCTGGATTAGTGCTA: -0.212 z-score
ATCATTTTCGTTTTTATTATGTGCTAG: 3.34 z-score
TGAGCACCCAGAGCCGCCTGGTGCTAG: -0.511 z-score
TTAGATCTCAGACTGGATGAGTGCTAG: -0.128 z-score
GACGATTTCAGACTGCAGACGTGCTAG: -0.355 z-score
CTCATTCGTCATTTCACAGTGTGCTAG: 0.714 z-score
TTAGGACAGGGTATCGGTTAGTGCTAG: 2.11 z-score
GACGGTTTCGGGTTCCGGGACGTGCTA: 9.94 z-score
TCAGCTTCCTCTTTCACACTGTGCTAG: 1.62 z-score
TTAGGTTCCCTTATCCTTTAGTGCTAG: 0.666 z-score
TGAGGTTTCGGTTCCGGTTAGTGCTAG: 11.6 z-score
TTAGGTATCCTTCTCCATTAGTGCTAG: 0.848 z-score
GACGAACTGGAGTATCGAGACGTGCTA: 0.65 z-score
GACTATTTCAGACTGGAGACGTGCTAG: -0.111 z-score
GACGGTTTCGGTTTCGGGAGGTGCTAG: 14.1 z-score
TTAGATTTCAGACTAGATTAGTGCTAG: 0.0903 z-score
AACGGACTGGACTTTCGGGACGTGCTA: 0.0861 z-score

Set 3 — technique: DHFR PCA, deep sequencing; sample: yeast; added: (+)-ABA 0 µM; relative to: wild-type fitted maximum; direction: higher = stronger binding; measurement: relative binding score
Target: ABI1, truncated, D143A, DHFR fusion (Arabidopsis thaliana)
Notes: methotrexate growth selection, single substitutions
Starting sequence: PYL1, truncated, DHFR fusion (Arabidopsis thaliana); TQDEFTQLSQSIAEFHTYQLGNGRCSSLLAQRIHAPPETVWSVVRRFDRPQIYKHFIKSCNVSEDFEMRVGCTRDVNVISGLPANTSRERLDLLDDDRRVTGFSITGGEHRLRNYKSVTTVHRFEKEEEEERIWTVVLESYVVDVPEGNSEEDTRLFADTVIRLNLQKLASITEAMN
G21F: -2.18%
D75H: 20.5%
C60F: -0.918%
G108D: 7.88%
C25F: 9%
Q31W: 1.31%
D92Q: 12.7%
K116C: 5.79%
D92V: -2.68%
Q10D: 49.7%
V136K: -8.11%
E147Y: 10.5%
I33F: -1.28%
G21T: 31.7%
R123Y: -2.89%

Set 4 — technique: protein binding microarray; molecule type: double-stranded DNA, one strand shown; sample: in vitro; tested at: not given; relative to: not given; direction: higher = stronger binding; measurement: E-score
Target: Histone acetyltransferase KAT6A, winged helix 2, GST fusion (KAT6A, Homo sapiens, UniProt Q92794, residues 85-181)
Notes: 8-mer, flanks averaged, mean of 2 arrays, mostly near background
Target sequence (chain): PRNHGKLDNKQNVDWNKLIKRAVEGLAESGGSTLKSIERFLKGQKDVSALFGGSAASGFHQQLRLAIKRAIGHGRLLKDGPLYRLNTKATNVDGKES
AGCGAGAG: 0.0294
ACCCACAC: 0.0972
GGTTTCCA: -0.128
GTATCGGA: -0.236
AACCCAAT: -0.0932
CGGGCGCC: 0.191
CGGGATCC: 0.15
CGACCATA: -0.0124
GGGGTTAA: -0.139
CTTGGGTC: 0.0296
CGAGGGCA: 0.144
AAGACGAT: -0.0525
AGAGGCTG: -0.261
CTCGGCAC: -0.0768
AATGTCTC: -0.173
ACAACGTA: -0.056
CCCAGCTA: -0.0427
GTTTTATA: 0.0258
CCGCTAGC: 0.0453

Set 5 — technique: EMSA with sequencing; molecule type: double-stranded DNA, one strand shown; sample: in vitro; tested at: 10 and 20 nM; relative to: negative control set to 0; direction: higher = stronger binding; measurement: normalised bound fraction
Target: Hepatocyte nuclear factor 3-alpha (Foxa1, Mus musculus, UniProt P35582, residues 1-468, full length assumed)
Notes: whole designed probe, mean of two concentrations, ends assumed
Construct (chain): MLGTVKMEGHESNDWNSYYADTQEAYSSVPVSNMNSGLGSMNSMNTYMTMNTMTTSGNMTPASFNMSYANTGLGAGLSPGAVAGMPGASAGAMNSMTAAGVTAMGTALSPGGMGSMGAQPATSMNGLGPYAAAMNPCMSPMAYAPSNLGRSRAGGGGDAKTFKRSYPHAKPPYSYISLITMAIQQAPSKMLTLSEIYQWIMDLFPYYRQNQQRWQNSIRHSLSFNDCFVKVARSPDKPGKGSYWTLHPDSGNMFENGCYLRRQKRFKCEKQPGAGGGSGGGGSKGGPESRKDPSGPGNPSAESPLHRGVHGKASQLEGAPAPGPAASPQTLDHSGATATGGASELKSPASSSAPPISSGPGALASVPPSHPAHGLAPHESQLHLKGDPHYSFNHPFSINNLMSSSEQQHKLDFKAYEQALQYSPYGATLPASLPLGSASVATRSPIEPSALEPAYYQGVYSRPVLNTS
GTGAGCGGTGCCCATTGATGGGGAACAGTTGGGATTAAAAAAACAAAATCCAAAATCTGGGTTTCAGTGTCATCTGTAAAATGTAGATATAATGACTGTGGTGAGTATCTGTGTGTGCATGTGTACATATGTGTATGAGTTTATGTAGGAGTACACATATACTTAGAAGCACAAATGAGTCATGCTCTATACAACATTGTGCAGCTCCTTTTTTACAGATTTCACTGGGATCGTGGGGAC: 0.172 ratio
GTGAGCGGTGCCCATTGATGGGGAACACATTTGGGTCATTCCACCCTTTGACTAATGTGATCAGTGCTGCTCTGAACATTCGTGTATGAGTATTTGAGGATCGTTTTCACTTCTCTTGGGTAAACATCTAGGAGTGAAATTGCTGAGTCATAGGGCAGTTTTATGTGTAACTACTTTTTGAGGAGTGCAGTGGCATAATCTTGCCTCACTGAAACCTCCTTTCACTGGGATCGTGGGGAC: 0.263 ratio
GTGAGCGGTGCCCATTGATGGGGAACGTCTCTTGAGGGCAGGGACCCTGGCTGCTTTTCCCATTATCCTTCCAAAGCTCCAGCTCTGGGGCCATGAACCAGAAATCATTCCTTCAAGGATGTTGACACAGTGAGTCACCTGAGAAGGGGCAGGGTGCAGGAGGGGTGGGGCAGGAGATCAGGAACTGGTGTGGGACATTAGGGGTGGGAGATAGGCCAGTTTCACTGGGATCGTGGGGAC: 0.246 ratio
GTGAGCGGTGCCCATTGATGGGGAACACTTATAAATGGACACCCAATTTTCAGCTATAACAAAGAATGAAGTACTTATACATGGTAAAATATTGGTGAAATTTGAAAGCATTATGCTAAGTACACAAAAGGACAAATATTACTTGATTTTATTCACATGAAACATCAGGAATTGGCAAATCAACTGGGATATAAATCAGATTAGTGGTCATTAGGGCTCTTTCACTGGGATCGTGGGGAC: 0.38 ratio
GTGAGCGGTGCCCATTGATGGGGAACAACTTTCATGCACAAAAAGACACATGAGCATCATCTAATAAATATTCCTTCTTGTTACAGATGAGAAACAGGCTGGGCATGGTGACTCATGCCTGTTTACCCAGCACTTTACAAGGCCAAGATGGGAGGATCACTTGAGCCCAGGGGCTCGAGACCAGCCTGGGCAACATGGTGAGACCTCATCTCTACAAAATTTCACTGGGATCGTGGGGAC: 0.286 ratio
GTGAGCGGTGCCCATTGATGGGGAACATCTTCCCCCTCTTCCTTGCCCCACCAGCTCACCTTCCCGGGTTATTTGCACAAAGGAAAATAAATAAAGCCGGCATTCGTTAACGCAGTTCACGCGCATACTGCTGTTTGCTCTGCATCTAACATGGTCCTTACGCGAGGCGTGGCTCCGGGAGAGCAAAGCACCGTGTCAGGCGCATGATCCGGGCTCGCCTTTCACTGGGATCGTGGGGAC: 0.386 ratio
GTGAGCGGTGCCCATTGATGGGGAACGTCCTGATGTAGGGGACCATAAACTATGGTGGGTAACTGGCCCTTCAAAATAGCCATCAAATGGCAACACTTGCCTAAACCTTGGAGGGCATTGTAATCTGGGATCTTCTGGGTGTCACCTCAAGAATTTAAGACTTCTAAACAGGGAATATTGATCCCGCCTAAAGGGAAGAATCTTATCAGATGAGAAAAGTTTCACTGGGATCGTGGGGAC: -0.0788 ratio
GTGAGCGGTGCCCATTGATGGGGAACACCAATAAGAGGCCTTTTTGAACAGTGACGCCAGGCGCCCTGGCGCTGCCCCCAAGCTCGTGCCTCATTTACAGCCTGCGGGCGGGAGTCTCCTTGTTTACCAAAGCAGAGGGCGTGTGGGAGGCGGGGGCCGTCGCTCGCTCCCGCCTCCTCGGAAACCTTGTCCCCACAACCGCTGCGTGTTAAAAAGGACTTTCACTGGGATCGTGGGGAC: 0.205 ratio

Set 6 — target: CCND1, cyclin fold, Cln2 fusion (human); technique: yeast growth competition, sequencing; sample: yeast; notes: weak parent motif; relative to: not given; direction: higher = stronger binding; measurement: normalised enrichment score
Starting sequence: CDKN1B docking peptide (human); PSACRNLFGPVDH
V11S: 1.27
A3M: 0.343
P1Y: 0.982
D12V: 0.543
F8P: 0.0694
A3W: 0.541
S2Y: -0.153
A3S: 0.426
C4N: 0.588
N6H: 0.233
D12I: 0.577
D12L: 0.654
D12S: 0.246
S2T: 0.566
F8N: 0.207

Some of these lines once more (set 3):
I33F: -1.28%
G108D: 7.88%
D92V: -2.68%
G21T: 31.7%
C25F: 9%
Q10D: 49.7%
K116C: 5.79%
V136K: -8.11%
D75H: 20.5%
E147Y: 10.5%
D92Q: 12.7%
Q31W: 1.31%
